# Measurements collected from several papers.
# A part holds a random share of what one study measured. Values joined by “and” are separate records of one study, mostly repeats; a detail may differ. Changes are numbered by the printed parent chain.
# Sequence of UniProt O75417 (whole entry, unmodified, looked up): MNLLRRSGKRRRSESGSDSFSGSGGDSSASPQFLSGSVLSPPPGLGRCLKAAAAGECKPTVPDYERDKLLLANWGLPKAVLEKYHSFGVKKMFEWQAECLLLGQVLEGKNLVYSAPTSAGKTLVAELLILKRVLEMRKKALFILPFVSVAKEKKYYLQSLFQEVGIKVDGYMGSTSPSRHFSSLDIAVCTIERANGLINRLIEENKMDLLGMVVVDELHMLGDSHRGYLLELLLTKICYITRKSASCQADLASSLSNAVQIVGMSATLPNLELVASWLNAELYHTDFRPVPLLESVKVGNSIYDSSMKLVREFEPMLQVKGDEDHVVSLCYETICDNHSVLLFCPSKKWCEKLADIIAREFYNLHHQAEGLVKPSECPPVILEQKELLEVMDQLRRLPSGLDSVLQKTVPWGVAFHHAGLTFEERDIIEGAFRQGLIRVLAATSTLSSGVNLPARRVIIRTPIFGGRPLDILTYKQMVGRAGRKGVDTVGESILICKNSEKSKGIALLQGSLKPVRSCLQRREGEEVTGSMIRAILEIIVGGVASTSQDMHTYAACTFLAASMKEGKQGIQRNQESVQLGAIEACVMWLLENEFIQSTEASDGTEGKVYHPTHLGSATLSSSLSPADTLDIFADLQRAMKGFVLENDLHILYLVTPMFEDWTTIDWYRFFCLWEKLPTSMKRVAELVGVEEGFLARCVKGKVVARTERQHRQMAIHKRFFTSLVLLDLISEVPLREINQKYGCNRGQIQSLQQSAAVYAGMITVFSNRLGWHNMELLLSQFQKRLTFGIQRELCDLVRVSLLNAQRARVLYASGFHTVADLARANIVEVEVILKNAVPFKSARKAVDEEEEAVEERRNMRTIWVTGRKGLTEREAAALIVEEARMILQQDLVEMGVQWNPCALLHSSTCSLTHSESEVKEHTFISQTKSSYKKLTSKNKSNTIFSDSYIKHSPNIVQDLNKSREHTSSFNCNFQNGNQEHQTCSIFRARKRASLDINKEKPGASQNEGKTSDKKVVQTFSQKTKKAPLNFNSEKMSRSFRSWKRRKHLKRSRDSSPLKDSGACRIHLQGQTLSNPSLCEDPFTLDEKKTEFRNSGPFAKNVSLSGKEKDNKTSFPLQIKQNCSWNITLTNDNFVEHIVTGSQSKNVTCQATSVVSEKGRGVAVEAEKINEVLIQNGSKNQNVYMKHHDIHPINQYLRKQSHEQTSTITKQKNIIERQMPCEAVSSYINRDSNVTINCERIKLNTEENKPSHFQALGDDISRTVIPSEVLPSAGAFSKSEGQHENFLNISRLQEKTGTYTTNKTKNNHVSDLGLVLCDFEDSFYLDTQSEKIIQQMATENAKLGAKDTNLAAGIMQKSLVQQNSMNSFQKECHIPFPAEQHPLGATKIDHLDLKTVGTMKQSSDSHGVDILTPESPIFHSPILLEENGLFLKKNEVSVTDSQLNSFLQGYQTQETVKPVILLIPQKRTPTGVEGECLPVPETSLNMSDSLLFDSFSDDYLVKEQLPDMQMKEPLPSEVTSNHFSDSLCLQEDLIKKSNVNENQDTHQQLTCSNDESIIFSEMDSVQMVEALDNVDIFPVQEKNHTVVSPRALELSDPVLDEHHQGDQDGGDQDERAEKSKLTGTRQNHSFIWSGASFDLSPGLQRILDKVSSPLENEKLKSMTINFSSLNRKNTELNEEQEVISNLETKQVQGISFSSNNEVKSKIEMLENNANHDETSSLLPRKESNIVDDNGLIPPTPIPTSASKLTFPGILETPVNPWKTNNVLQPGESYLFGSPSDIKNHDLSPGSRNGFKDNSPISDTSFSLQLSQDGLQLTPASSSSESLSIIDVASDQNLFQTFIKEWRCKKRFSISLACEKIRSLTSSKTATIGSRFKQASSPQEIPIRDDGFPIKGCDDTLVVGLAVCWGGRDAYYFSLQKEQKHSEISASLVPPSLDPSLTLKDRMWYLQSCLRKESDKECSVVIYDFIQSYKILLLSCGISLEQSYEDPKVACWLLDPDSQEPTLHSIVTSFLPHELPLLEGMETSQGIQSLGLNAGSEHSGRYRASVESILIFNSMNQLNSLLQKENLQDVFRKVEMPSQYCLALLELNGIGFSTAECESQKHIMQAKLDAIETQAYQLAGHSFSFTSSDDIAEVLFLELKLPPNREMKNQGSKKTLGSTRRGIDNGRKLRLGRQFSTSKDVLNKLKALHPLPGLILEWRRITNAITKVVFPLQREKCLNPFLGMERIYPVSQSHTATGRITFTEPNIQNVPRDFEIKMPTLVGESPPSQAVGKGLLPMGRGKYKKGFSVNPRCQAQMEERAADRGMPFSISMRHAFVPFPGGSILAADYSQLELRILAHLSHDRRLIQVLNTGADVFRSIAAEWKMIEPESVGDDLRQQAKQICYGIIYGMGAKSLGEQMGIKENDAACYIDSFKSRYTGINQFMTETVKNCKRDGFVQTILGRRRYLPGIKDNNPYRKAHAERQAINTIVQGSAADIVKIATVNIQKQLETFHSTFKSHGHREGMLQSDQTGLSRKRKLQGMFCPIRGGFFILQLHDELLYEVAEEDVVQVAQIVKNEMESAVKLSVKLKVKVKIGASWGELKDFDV
# Sequence of UniProt Q96SW2 (whole entry, looked up): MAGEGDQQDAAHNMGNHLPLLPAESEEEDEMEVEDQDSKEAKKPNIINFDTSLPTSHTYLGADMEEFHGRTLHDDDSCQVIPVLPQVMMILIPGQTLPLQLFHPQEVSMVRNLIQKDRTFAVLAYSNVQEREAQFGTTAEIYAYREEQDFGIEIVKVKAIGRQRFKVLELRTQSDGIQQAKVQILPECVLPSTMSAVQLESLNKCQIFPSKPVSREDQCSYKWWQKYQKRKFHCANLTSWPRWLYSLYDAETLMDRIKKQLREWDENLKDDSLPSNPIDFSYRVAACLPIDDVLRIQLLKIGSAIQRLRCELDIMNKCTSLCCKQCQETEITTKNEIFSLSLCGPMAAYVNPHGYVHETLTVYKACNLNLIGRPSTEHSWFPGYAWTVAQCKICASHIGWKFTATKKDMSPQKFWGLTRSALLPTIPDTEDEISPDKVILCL
# Sequence of UniProt Q9BYT3 (whole entry, looked up): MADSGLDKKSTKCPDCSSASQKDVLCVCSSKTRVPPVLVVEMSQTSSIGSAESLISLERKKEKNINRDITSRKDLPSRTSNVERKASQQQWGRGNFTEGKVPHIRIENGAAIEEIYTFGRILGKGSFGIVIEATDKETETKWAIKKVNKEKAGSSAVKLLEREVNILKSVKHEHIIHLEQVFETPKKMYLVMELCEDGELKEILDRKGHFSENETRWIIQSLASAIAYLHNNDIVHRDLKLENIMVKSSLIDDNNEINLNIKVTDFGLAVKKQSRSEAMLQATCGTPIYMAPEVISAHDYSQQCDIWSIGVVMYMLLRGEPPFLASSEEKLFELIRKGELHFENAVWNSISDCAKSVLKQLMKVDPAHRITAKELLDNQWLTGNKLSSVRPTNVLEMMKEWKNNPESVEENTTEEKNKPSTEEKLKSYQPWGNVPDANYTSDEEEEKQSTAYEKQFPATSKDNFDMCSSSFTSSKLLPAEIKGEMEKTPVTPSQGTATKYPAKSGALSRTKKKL
# Sequence of UniProt Q9UQM7 (whole entry, looked up): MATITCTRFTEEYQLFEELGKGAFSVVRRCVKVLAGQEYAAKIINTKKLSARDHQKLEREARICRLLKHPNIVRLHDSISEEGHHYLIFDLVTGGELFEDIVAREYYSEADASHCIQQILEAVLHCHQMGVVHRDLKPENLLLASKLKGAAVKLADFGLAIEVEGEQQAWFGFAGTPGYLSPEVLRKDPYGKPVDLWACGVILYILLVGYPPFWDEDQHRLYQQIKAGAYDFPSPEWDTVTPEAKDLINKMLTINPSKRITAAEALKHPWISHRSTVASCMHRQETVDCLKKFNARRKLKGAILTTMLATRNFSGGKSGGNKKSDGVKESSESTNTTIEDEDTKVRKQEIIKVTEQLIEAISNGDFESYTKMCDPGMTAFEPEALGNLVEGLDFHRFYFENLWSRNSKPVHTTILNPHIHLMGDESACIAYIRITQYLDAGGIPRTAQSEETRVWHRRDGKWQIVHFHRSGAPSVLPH
# Sequence of UniProt Q9UKS7 (whole entry, looked up): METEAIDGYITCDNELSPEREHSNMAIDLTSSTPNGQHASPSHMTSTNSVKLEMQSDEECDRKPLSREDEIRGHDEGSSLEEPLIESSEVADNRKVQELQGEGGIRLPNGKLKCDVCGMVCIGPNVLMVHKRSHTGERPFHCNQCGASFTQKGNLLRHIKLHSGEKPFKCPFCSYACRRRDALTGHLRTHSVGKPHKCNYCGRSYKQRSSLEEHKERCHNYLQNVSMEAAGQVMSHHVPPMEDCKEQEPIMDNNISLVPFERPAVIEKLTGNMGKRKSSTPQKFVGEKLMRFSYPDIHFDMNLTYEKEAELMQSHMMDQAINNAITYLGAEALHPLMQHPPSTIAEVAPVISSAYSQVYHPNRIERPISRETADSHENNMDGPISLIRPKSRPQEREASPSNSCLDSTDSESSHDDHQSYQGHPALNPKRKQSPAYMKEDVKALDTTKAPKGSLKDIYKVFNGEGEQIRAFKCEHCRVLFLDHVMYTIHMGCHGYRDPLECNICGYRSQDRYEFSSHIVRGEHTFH

# Block 1
# Target: CCNB2, cyclin fold, Cln2 fusion (human)
# Method: yeast growth competition, sequencing
# Sample: yeast
# Setting: weak parent motif
# Reference: not given
# Reading: higher = stronger binding
# Starting sequence: viral docking peptide; KGVKRKLFAEDSS; partner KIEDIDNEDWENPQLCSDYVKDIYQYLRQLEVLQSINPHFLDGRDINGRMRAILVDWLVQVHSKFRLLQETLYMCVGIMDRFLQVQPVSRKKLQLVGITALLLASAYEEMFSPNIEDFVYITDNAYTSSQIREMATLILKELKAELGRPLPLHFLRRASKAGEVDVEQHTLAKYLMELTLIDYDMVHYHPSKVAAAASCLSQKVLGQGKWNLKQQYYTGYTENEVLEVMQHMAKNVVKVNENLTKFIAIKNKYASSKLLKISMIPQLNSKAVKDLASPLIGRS
Substitution,normalised enrichment score
G2E,0.714
E10Y,0.15
F8P,0.16
A9G,0.467
F8N,0.174
K4M,0.0377
K6E,0.626

# Block 2
# SMILES: CC[C@H](C)c1nc2cc(Nc3ccnc4ccc(S(=O)(=O)C(C)C)cc34)ccc2s1.Cl
# Cell line: HT-29
# Read-out: necroptosis protection
# Method: CCK-8
# Together with: TNF-α SMAC mimetic zVAD
tested at,viability
2.5 µM,38.2% and 27.3% and 40.4% and 76.8% and 28.9%
0.313 µM,18.4% and 19% and 12.1% and 19.6%
10 µM,73.4% and 92% and 73% and 77.6%

# Single results of other studies
Molecule,target,test,test system,conditions,how to read,measurement,result
O=C1CCC(N2Cc3c(ccc4c3OCC43CCN(Cc4ccsc4)CC3)C2=O)C(=O)N1 (centres unmarked),"CRBN/Zinc finger protein Helios (Homo sapiens, UniProt Q96SW2+Q9UKS7)","degrader, HiBiT",HEK293,370.37 nM,,protein remaining,22.3%
O=C(c1cc2cc(O)ccc2[nH]1)c1cc2cc(O)ccc2[nH]1,"Serine/threonine-protein kinase 33 (STK33, Homo sapiens, UniProt Q9BYT3)","enzyme activity, inhibitor, radiometric",,0.5 µM,,remaining activity,77.5%
C/C=C1\C[C@@H](C)[C@](O)(CO)C(=O)OCC2=CC[N+]3([O-])CC[C@@H](OC1=O)[C@@H]23 (some centres unmarked),"Calcium/calmodulin-dependent protein kinase type II subunit alpha (CAMK2A, Homo sapiens, UniProt Q9UQM7)","enzyme activity, inhibitor",,10 µM,,inhibition,-26%
merbromin,"DNA polymerase theta, ATPase domain (POLQ, Homo sapiens, UniProt O75417)","ATPase activity, inhibitor, ADP-Glo",,"77 µM, replicate B",direction not given,Z-score,-6.34
